Measured values gathered from unrelated publications.
Each line is one published result; not all experiments were run side by side. ± marks the error that the study gave.

CC(C)CCCC(C)C1CCC2C3CC=C4CC(OC(=O)CCC(=O)NCCCCCCNC(=O)O[C@H]5[C@@H](O)[C@H](n6cnc7c(=O)[nH]c(N)nc76)O[C@@H]5COP(=O)(O)OP(=O)(O)OP(=O)([S-])OC[C@H]5O[C@@H](n6c[n+](C)c7c(O)nc(N)nc76)[C@H](O)[C@@H]5O)CCC4(C)C3CCC12C (mixture of isomers)
IC50 (cap-dependent translation; rabbit reticulocyte lysate; 1 h preincubation, added: capped luciferase mRNA): 20.5 ± 5.7 µM

Sc1nnc(-c2ccccc2Cl)o1
IC50 (superoxide scavenging, pyrogallol): 142 ± 1.1 µM

CCCCn1cc(C(=O)O)c(=O)c2cc(F)c(Nc3cc(OC)c(OC)c(OC)c3)c([N+](=O)[O-])c21
IC50 (DPPH radical scavenging; 30 min): 313 ± 13.9 µg/mL

C[n+]1cn([C@@H]2O[C@H](COP(=O)(O)OP(=O)([O-])OP(=O)(O)OC[C@H]3O[C@@H](n4cnc5c(NCCCCCCN)ncnc54)[C@H](O)[C@@H]3O)[C@@H](O)[C@H]2O)c2nc(N)nc(O)c21
IC50 (cap-dependent translation; rabbit reticulocyte lysate; 1 h preincubation, added: capped luciferase mRNA): 23.9 ± 5.5 µM

CC(=O)C1=C(C)NC(=O)NC1c1ccc([N+](=O)[O-])cc1 (stereo not drawn)
IC50 (nitric oxide scavenging): 265 µM

CC[C@H]1OC(=O)[C@H](C)C(=O)[C@H](C)[C@@H](O[C@@H]2O[C@H](C)C[C@H](N(C)C)[C@H]2O)[C@](C)(OC)C[C@@H](C)C2=NCCN3C(=O)O[C@@]1(C)[C@H]3[C@H]2C
IC50 (translation, luciferase reporter; Escherichia coli S30 extract): 0.52 ± 0.05 µM

CC(=O)C1=C(C)NC(=O)NC1c1cccc(C)c1 (stereo not drawn)
IC50 (ferric reducing power, FRAP): 221 µM

O=C(N[C@@H](Cc1ccc(OCCCCC2CCNCC2)cc1)C(=O)O)c1nc2ccccc2o1
IC50 (clot retraction, inhibitor; human platelet-rich plasma; added: thrombin): 93.5 ± 37.5 µM

CC[C@H](C)[C@H](NC(C)=O)C(=O)N[C@H]1CSSC[C@@H](C(=O)N(C)[C@H](C(N)=O)[C@@H](C)CC)NC(=O)[C@H](CCCNC(=N)N)NC(=O)[C@H](Cc2c[nH]cn2)NC(=O)[C@H](C)NC(=O)CN(C)C(=O)[C@H](Cc2c[nH]c3ccccc23)NC(=O)[C@H](CC(=O)O)NC(=O)[C@H](CCC(N)=O)NC(=O)[C@H](Cc2cn(C)c3ccccc23)NC(=O)[C@H](C(C)C)NC1=O
IC50 (classical complement activation, inhibitor, C3b deposition ELISA; normal human plasma; 15 min, plasma 1:80): 0.13 ± 0.04 µM

CCCCSc1nnc(-c2ccc(C(C)(C)C)cc2)o1
IC50 (superoxide scavenging, pyrogallol): 108 ± 3.3 µM

COc1ccc(-c2c(O)oc3c(CC=C(C)C)c(O)cc(O)c3c2=O)cc1
IC50 (DPPH radical scavenging; 30 min): 15.7 ± 0.335 µg/mL

CC(=O)C1=C(C)NC(=O)NC1c1ccc(Br)cc1 (stereo not drawn)
IC50 (ferric reducing power, FRAP): 262 µM

CCCCSc1nnc(-c2ccccc2)o1
IC50 (superoxide scavenging, pyrogallol): 164 ± 3.4 µM

C#CCCCC(=O)NCC(=O)NCC(=O)NCC(=O)N1CCC[C@H]1C(=O)N[C@@H](CCCCN)C(=O)N[C@@H](CCCCN)C(=O)N[C@@H](CCCCN)C(=O)N[C@@H](CCCNC(=N)N)C(=O)N[C@@H](CCCCN)C(=O)N[C@H](C(=O)NCC(=O)NCC(N)=O)C(C)C
IC50 (translation, luciferase reporter; Escherichia coli S30 extract): > 250 µM

CCCCCCCCCCCCCCCCCCCCCCCCCCCCCCOC(=O)/C=C/c1ccc(O)cc1
IC50 (DPPH radical scavenging; 30 min): 89.1 ± 24.9 µg/mL

CC(=O)[O-].[Cu+2].[O-]c1ccc(Br)cc1C=NCCN1CCOCC1
IC50 (hydroxyl radical scavenging): 240 µM

CCCCSc1nnc(-c2ccc(N)cc2)o1
IC50 (superoxide scavenging, pyrogallol): 41 ± 1.9 µM

CC(=O)c1cnc(N)nc1N1CC[C@H]1c1nn2ccc(Cl)c2c(=O)n1-c1ccccc1
IC50 (Th17 differentiation, item: IL-22; rheumatoid arthritis patient whole blood): 0.073 µM

CC(=O)C1=C(C)NC(=O)NC1c1cccc(Cl)c1 (stereo not drawn)
IC50 (nitric oxide scavenging): 283 µM

Nc1ccc(-c2nnc(S)o2)cc1
IC50 (superoxide scavenging, pyrogallol): 50.8 ± 2.2 µM

NS(=O)(=O)c1ccc(/N=N/c2ccc(O)c(/C=N/CCc3c[nH]c4ccccc34)c2)cc1
IC50 (DPPH radical scavenging; 60 min): 13.1 ± 0.86 µM

CC1OC(OC2C(c3c(O)cc(O)c4c(=O)cc(-c5ccc(O)cc5)oc34)OC(CO)C(O)C2O)C(O)C(O)C1O (stereo not drawn)
IC50 (AGE formation; BSA-methylglyoxal model): 42.1 ± 3.75 µM

COc1ccc(NC(=O)[C@H](CCCCN)NC(=O)c2cc(NC(=O)[C@H](CCCCN)NC(=O)c3cc(NC(=O)[C@H](CCCCN)NC(=O)c4cc(NC(=O)[C@@H](N)CCCCN)ccc4OC)ccc3OC)ccc2OC)cc1C(N)=O
IC50 (heparin reversal, aPTT; human citrated plasma; added: unfractionated heparin 0.5 U/mL): 1.1 µM

CC(C)(C)c1ccc(-c2nnc(S)o2)cc1
IC50 (superoxide scavenging, pyrogallol): 83.2 ± 3.2 µM

CCCCn1cc(C(=O)O)c(=O)c2cc(F)c(Nc3ccc(OC)cc3)c(N)c21
IC50 (DPPH radical scavenging; 30 min): 111 ± 11.5 µg/mL

C[n+]1cn([C@@H]2O[C@H](COP(=O)([S-])OP(=O)(O)OP(=O)(O)OC[C@H]3O[C@@H](n4cnc5c(=O)[nH]c(N)nc54)[C@H](O)[C@@H]3OC(=O)NCCCCCCN)[C@@H](O)[C@H]2O)c2nc(N)nc(O)c21 (mixture of isomers)
IC50 (cap-dependent translation; rabbit reticulocyte lysate; 1 h preincubation, added: capped luciferase mRNA): 6 ± 0.8 µM

C#CCNC(=O)CNC(=O)CNC(=O)[C@@H]1CCCN1C(=O)[C@H](CC(=O)O)NC(=O)CNC(=O)[C@H](CCCNC(=N)N)NC(=O)[C@H](CC(=O)O)NC(=O)CNC(=O)[C@H](CCCNC(=N)N)NC(=O)[C@H](CC(=O)O)NC(=O)CNC(=O)[C@H](CCCNC(=N)N)NC(=O)[C@H](CC(=O)O)NC(=O)CNC(=O)[C@@H](N)CCCNC(=N)N
IC50 (translation, luciferase reporter; rabbit reticulocyte lysate): > 250 µM

BP(=O)(OP(=O)([O-])OC[C@H]1O[C@@H](n2c[n+](C)c3c(=O)[nH]c(N)nc32)[C@H](O)[C@@H]1O)OP(=O)([O-])OC[C@H]1O[C@@H](n2c[n+](C)c3c(=O)[nH]c(N)nc32)[C@H](O)[C@@H]1O
IC50 (cap-dependent translation, inhibitor; rabbit reticulocyte lysate; no pre-incubation; baseline: m7GpppG): 2.77 µM

COc1ccc(C2NC(=O)NC(C)=C2C(C)=O)cc1 (stereo not drawn)
IC50 (nitric oxide scavenging): 96.4 µM

C#CCNC(=O)CNC(=O)CNC(=O)CNC(=O)[C@@H]1CCCN1C(=O)[C@H](CCCCN)NC(=O)[C@H](CCCCN)NC(=O)[C@H](CCCCN)NC(=O)[C@H](CCCNC(=N)N)NC(=O)[C@H](CCCCN)NC(=O)[C@@H](NC(=O)CNC(=O)CN)C(C)C
IC50 (translation, luciferase reporter; Escherichia coli S30 extract): > 250 µM

CC(=O)C1=C(C)NC(=O)NC1c1ccccc1 (stereo not drawn)
IC50 (ferric reducing power, FRAP): 78.8 µM

CCCC[C@H](NC(=O)[C@@H]1CSSC[C@H](NC(=O)[C@@H](NC(C)=O)[C@@H](C)CC)C(=O)N[C@@H](C(C)C)C(=O)N[C@@H](Cc2cn(C)c3ccccc23)C(=O)N[C@@H](CCC(N)=O)C(=O)N[C@@H](CC(=O)O)C(=O)N[C@@H](Cc2c[nH]c3ccccc23)C(=O)N(C)CC(=O)N[C@@H](C)C(=O)N[C@@H](Cc2c[nH]cn2)C(=O)N[C@@H](CCCNC(=N)N)C(=O)N1)C(N)=O
IC50 (complement activation, ELISA, item: C3 fragment deposition; human serum; classical pathway): 0.109 µM

CCCCn1cc(C(=O)O)c(=O)c2cc(F)c(Nc3ccccc3OC)c(N)c21
IC50 (DPPH radical scavenging; 30 min): 15.1 ± 1.21 µg/mL

CC(=O)C1=C(C)NC(=O)NC1c1ccc(F)cc1F (stereo not drawn)
IC50 (ferric reducing power, FRAP): 116 µM

CCCCSc1nnc(-c2ccccc2Cl)o1
IC50 (nitric oxide scavenging): 63.9 ± 4.4 µM

Cn1ccc(-c2cc(Cl)c(Cl)c3[nH]c4c(c23)CN(C(=O)CO)CC4)n1
IC50 (item: CXCL10; mouse whole blood; added: 100 bp dsDNA): inactive

CC(=O)C1=C(C)NC(=O)NC1c1ccc(C)cc1 (stereo not drawn)
IC50 (nitric oxide scavenging): 268 µM

CCCCSc1nnc(-c2cc(Cl)ccc2Cl)o1
IC50 (superoxide scavenging, pyrogallol): 84.9 ± 2.2 µM

NS(=O)(=O)c1ccc(/N=N/c2ccc(O)c(C=O)c2)cc1
IC50 (DPPH radical scavenging; 60 min): 17 ± 0.43 µM

Repeated from above:
C[n+]1cn([C@@H]2O[C@H](COP(=O)([S-])OP(=O)(O)OP(=O)(O)OC[C@H]3O[C@@H](n4cnc5c(=O)[nH]c(N)nc54)[C@H](O)[C@@H]3OC(=O)NCCCCCCN)[C@@H](O)[C@H]2O)c2nc(N)nc(O)c21 (mixture of isomers)
IC50 (cap-dependent translation; rabbit reticulocyte lysate; 1 h preincubation, added: capped luciferase mRNA): 6 ± 0.8 µM

CCCCn1cc(C(=O)O)c(=O)c2cc(F)c(Nc3ccc(OC)cc3)c(N)c21
IC50 (DPPH radical scavenging; 30 min): 111 ± 11.5 µg/mL

CCCCSc1nnc(-c2cc(Cl)ccc2Cl)o1
IC50 (superoxide scavenging, pyrogallol): 84.9 ± 2.2 µM

CC(=O)C1=C(C)NC(=O)NC1c1ccc(C)cc1 (stereo not drawn)
IC50 (nitric oxide scavenging): 268 µM

CC(C)CCCC(C)C1CCC2C3CC=C4CC(OC(=O)CCC(=O)NCCCCCCNC(=O)O[C@H]5[C@@H](O)[C@H](n6cnc7c(=O)[nH]c(N)nc76)O[C@@H]5COP(=O)(O)OP(=O)(O)OP(=O)([S-])OC[C@H]5O[C@@H](n6c[n+](C)c7c(O)nc(N)nc76)[C@H](O)[C@@H]5O)CCC4(C)C3CCC12C (mixture of isomers)
IC50 (cap-dependent translation; rabbit reticulocyte lysate; 1 h preincubation, added: capped luciferase mRNA): 20.5 ± 5.7 µM

C#CCNC(=O)CNC(=O)CNC(=O)CNC(=O)[C@@H]1CCCN1C(=O)[C@H](CCCCN)NC(=O)[C@H](CCCCN)NC(=O)[C@H](CCCCN)NC(=O)[C@H](CCCNC(=N)N)NC(=O)[C@H](CCCCN)NC(=O)[C@@H](NC(=O)CNC(=O)CN)C(C)C
IC50 (translation, luciferase reporter; Escherichia coli S30 extract): > 250 µM
